# Assay results pooled from the literature.
# Numbered parts are unrelated; each lists some results of a single study.

# Sample 1 — technique: protein-binding microarray; form: double-stranded DNA, one strand shown; sample: in vitro; tested at: 940 nM top; notes: 60-bp whole probe; with: salmon DNA 0.4 mg/ml; reference: random background probes; direction: higher = stronger binding; shared flanks, not repeated: GCCTAGCAC … GTCTTGATTCGCTTGACGCTGCTG
# Target: Interferon regulatory factor 5, full length, phosphomimetic (IRF5, Homo sapiens, UniProt Q13568-2, residues 1-514, S451D/S453D/S456D/S462D)
Strand,fitted relative affinity [z-score]
GACGATATAGGGACTGGAGACGTGCTA,-0.376
TTAGGTTTCGTCACTGGGTTAGTGCTA,5.7
TCACATACTAGTTTCCAACTGTGCTAG,0.602
GACGGTTTCGTTTCCCTGACGTGCTAG,9.38
GACGGATTCGGACTGGGGACGTGCTAG,-0.317
TTAGAACTGGTGTTTCGATTAGTGCTA,1.81
GACGGTCTCGGTATCGGGTCGTGCTAG,6.62
TTAGGACTGGGGTTTCGGTCAGTGCTA,5.3
GACGGCTTCGACACTGGGGACGTGCTA,-0.313
GACGATACCGGGTATCGAGACGTGCTA,2.19
GACGCTATCGGGTTTCGGGACGTGCTA,2.32
TTAGGTATCCTACAGCTTTAGTGCTAG,0.0249
GACGGTATCCTTATCTTGACGTGCTAG,0.386
CTGACCTTTTCCTGAGGCAGGTGCTAG,1.9

# Sample 2 — technique: protein binding microarray; form: double-stranded DNA, one strand shown; sample: in vitro; tested at: not given; reference: not given; direction: higher = stronger binding
# Target: Histone acetyltransferase KAT6A, both winged helices, GST fusion (KAT6A, Homo sapiens, UniProt Q92794, residues 1-181)
# Notes: 8-mer, flanks averaged, mean of 2 arrays, mostly near background
# Construct (chain): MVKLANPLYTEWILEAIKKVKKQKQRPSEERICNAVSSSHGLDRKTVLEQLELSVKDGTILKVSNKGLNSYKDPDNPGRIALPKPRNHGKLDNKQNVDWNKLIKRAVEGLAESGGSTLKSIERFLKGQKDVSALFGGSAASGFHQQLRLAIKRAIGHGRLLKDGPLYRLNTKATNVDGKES
Strand,E-score
GGTCCACA,-0.194
ATGCAAGG,-0.151
TGATATAA,-0.025
AGAGCCAG,-0.191
AACAAAGA,-0.159
AGGCCGTA,0.206
CCTGTGCA,-0.0131
AGCGGAGC,0.12
TCGATGCA,-0.184
AAAAGTCT,-0.19
ACTTAAGG,-0.121
CCTGAAGC,-0.16
AGTTAGCC,-0.0521

# Sample 3 — target: human cyclin B1; effect on: peptide binding; technique: yeast competitive growth sequencing; form: peptide; organism: Saccharomyces cerevisiae; strain: cyclin B1-Cln2 fusion; tested at: concentration not given; notes: peptide tiling library; direction: direction not given
Sequence,binding enrichment score
NEGVSNAVRRSLYIRD,0.122
SFLIEYEFLIPPSLKP,0.2
TQERKQIHCLSEDELS,0.636
LKGRRLVFDN,-0.336
GFGFLLFICKLTF,0.258
ISRLFPPRTPGWHQLQ,-0.28
NESHLDKEHDAVEVAD,0.272
DSGFCLDSPGPLDSKE,-0.333
DWDTVERQEEEAPSWD,0.577

# Other studies, line by line
Molecule,target,test,test system,conditions,how to read,measurement,result
"PhoQ, residues 284 288 289 292 302 303 NLALSC","PhoP, residues 12 14 15 18 19 TQAIL (Escherichia coli, UniProt P23836)","Sort-seq, item: YFP reporter",E. coli,"PhoQ-PhoP variant library, with: 10 µM Mg2+","reference: high Mg2+ state, higher = stronger signaling",fold induction,1.09

# For quick reference, copied from above (sample 2):
Strand,E-score
GGTCCACA,-0.194
AAAAGTCT,-0.19
AGCGGAGC,0.12
ATGCAAGG,-0.151
